Measurements from different studies.
Parts stem from different laboratories: compare values within a part only. Positions count from the first letter of the parent shown.
Sequence of UniProt Q14164 (whole entry, looked up): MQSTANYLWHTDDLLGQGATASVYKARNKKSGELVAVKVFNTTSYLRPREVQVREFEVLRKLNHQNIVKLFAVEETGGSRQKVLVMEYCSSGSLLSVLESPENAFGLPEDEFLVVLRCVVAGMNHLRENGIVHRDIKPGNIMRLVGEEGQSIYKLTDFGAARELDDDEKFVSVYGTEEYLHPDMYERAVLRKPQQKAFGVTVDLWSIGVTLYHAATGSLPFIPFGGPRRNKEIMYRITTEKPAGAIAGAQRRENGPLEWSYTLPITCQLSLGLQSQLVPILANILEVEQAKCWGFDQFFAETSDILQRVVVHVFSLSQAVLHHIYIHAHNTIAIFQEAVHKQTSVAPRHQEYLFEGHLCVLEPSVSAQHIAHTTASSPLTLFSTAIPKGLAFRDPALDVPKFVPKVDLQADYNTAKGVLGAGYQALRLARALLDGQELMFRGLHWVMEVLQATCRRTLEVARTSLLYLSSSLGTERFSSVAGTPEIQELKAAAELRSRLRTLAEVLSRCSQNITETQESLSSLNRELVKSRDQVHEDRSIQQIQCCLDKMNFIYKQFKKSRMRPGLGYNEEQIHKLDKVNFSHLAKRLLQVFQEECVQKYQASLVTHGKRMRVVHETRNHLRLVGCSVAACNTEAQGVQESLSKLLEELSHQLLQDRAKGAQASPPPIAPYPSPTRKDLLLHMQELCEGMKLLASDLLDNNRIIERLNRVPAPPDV

Series 1 — method: protein-binding microarray; form: double-stranded DNA, one strand shown; medium: in vitro; tested at: 0.8 µM; setting: whole 60-bp probe, no competitor; reading: higher = stronger binding; all sequences stand within: … GTCTTGATTCGCTTGACGCTGCTG
Target: Centromere-binding protein 1, full length, N-terminal tag (CBF1, Saccharomyces cerevisiae, UniProt P17106, residues 1-351)
Sequence of UniProt P17106 (whole entry, looked up): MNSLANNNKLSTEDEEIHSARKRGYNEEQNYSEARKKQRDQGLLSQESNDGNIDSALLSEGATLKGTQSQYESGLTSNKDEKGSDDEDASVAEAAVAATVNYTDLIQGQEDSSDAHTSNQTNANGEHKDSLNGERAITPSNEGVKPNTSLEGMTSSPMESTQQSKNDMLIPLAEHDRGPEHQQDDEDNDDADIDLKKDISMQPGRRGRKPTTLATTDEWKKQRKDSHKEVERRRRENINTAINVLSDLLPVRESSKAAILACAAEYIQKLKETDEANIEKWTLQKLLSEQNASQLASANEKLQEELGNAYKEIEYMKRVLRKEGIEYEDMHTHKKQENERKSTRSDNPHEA
`CTAGACTAACTTCATGACACAACCACTGTTGTATTC` gave a fluorescence intensity of 518 a.u.
The fluorescence intensity of `CTATATACGCGGCACCTGAGCAGCACATTAGGTTTC` is reported as 631 a.u.
`CTAGCCTGATGTAATCACGAACTCGAACAAAAGTTC` gave a fluorescence intensity of 583 a.u.
For `CTAATTCTTCGTATTCACATGTACATTTTCATCTTC`, the fluorescence intensity was 823 a.u.
`GAACAAGATTATGTTCTCGTGATTGACAACTTATAG` has a fluorescence intensity of 1540 a.u.
`GAAATGGATTCCTATACCACGAGGAGAACTAGTTAG` has a fluorescence intensity of 597 a.u.
`CCTAACTACTATACTTACATCAGATAGCTTCGTACA` has a fluorescence intensity of 537 a.u.
`GAAGTACGCTGCCATCACGGATAATTCAATTTATAG` has a fluorescence intensity of 552 a.u.

Series 2 — target: CCNB3, cyclin fold, Cln2 fusion (human); method: yeast growth competition, sequencing; medium: yeast; setting: weak parent motif; relative to: not given; reading: higher = stronger binding
Starting sequence: CDC25A docking peptide (human); PPHRRRLLFACSP; partner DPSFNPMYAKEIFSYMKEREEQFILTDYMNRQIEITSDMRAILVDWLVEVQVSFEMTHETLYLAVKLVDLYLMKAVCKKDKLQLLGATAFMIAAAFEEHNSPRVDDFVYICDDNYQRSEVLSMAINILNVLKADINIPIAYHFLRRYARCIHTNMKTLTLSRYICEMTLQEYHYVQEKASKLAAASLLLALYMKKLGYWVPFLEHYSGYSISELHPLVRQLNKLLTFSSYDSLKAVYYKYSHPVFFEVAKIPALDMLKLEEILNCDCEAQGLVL
For `P13S`, “normalised enrichment score” read 0.203.
For `R5A`, “normalised enrichment score” read 0.211.
Under “normalised enrichment score”, `S12H` is recorded as 0.159.
`A10M` — result for “normalised enrichment score”: 0.423.
For `F9T`, “normalised enrichment score” read 0.356.
For `L8F`, “normalised enrichment score” read 0.346.
`F9K` — result for “normalised enrichment score”: -0.0989.
`S12P` — result for “normalised enrichment score”: 0.282.

Series 3 — Molecule: HSPD1 (Homo sapiens, UniProt P10809); method: cross-linking MS; medium: cell fractions
LYRM2 (Homo sapiens, UniProt Q9NU23); added: DMTMM — cross-linked residues: “D399 to K14”.
The cross-linked residues was “K75 to K434” (UPF3A (Homo sapiens, UniProt Q9H1J1); added: DSSO).
It gave “D100 to E542” for cross-linked residues (ANKRD35 (Homo sapiens, UniProt Q8N283); added: DHSO).

Mixed results
`FC(F)(F)c1ccc(/C=C/c2nc(COc3ccc(CCCCn4ccnn4)cc3)co2)cc1` gave a remaining activity of 94.8% (Inhibitor of nuclear factor kappa-B kinase subunit epsilon (IKBKE, Homo sapiens, UniProt Q14164); enzyme activity, inhibitor; 0.5 µM; relative to: control).

Excerpt of the above (series 3):
LYRM2 (Homo sapiens, UniProt Q9NU23); added: DMTMM — cross-linked residues: “D399 to K14”.
